Measurements gathered from unrelated publications.
Every numbered part comes from another study and shows a few of its results, in no order. “And” joins repeats or separate records; there may be more than shown.
UniProt P08913, sequence (whole entry, looked up): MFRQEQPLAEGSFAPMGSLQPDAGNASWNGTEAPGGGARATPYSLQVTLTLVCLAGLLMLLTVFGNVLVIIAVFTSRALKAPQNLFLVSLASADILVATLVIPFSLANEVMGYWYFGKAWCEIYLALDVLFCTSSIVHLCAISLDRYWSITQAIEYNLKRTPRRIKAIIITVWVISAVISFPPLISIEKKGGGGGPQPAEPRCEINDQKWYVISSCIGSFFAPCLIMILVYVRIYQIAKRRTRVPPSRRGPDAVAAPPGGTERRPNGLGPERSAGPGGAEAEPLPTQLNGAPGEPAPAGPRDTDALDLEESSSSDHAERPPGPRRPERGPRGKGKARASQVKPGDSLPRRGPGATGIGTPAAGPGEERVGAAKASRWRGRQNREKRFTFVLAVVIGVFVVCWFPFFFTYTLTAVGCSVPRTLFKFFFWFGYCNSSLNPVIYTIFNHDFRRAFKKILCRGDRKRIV
UniProt Q6DT37, sequence (whole entry, looked up): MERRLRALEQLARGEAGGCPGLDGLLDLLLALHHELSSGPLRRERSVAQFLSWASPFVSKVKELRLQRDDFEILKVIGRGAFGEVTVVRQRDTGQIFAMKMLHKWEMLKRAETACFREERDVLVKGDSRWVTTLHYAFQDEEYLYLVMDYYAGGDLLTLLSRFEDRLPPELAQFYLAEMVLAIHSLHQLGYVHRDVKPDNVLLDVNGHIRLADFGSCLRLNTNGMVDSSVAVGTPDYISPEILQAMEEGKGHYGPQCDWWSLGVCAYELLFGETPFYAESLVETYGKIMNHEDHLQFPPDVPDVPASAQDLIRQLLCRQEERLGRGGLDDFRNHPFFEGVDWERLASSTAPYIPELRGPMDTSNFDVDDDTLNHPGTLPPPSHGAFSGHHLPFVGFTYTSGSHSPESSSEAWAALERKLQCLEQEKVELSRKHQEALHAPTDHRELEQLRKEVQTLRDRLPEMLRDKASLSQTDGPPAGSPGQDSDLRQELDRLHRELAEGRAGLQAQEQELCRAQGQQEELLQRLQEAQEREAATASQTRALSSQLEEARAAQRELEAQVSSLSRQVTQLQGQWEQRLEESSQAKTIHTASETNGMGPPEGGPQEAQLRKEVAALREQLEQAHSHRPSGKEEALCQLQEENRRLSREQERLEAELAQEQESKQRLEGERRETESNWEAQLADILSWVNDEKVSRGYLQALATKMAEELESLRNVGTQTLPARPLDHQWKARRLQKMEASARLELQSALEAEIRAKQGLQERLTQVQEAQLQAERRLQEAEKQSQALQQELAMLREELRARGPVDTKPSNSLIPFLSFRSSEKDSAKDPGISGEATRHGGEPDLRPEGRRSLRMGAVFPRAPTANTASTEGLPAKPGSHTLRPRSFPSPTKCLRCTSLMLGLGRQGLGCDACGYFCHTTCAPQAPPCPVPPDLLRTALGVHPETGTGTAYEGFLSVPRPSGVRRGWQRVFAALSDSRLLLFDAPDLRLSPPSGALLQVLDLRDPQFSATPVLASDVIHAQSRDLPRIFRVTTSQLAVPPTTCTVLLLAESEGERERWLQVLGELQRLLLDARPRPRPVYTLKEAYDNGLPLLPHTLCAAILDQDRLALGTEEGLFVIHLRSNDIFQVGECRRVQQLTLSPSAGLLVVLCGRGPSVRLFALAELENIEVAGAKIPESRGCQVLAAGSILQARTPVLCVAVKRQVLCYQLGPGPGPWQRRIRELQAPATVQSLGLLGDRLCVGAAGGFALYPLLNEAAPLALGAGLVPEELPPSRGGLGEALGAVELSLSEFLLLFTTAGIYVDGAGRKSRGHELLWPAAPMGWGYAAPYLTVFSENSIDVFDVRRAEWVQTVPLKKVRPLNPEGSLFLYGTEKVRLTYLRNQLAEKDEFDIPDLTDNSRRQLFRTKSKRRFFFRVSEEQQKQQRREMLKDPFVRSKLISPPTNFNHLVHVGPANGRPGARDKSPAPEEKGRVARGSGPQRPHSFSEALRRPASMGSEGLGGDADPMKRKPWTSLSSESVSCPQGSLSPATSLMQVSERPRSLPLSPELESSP
UniProt P08172, sequence (whole entry, looked up): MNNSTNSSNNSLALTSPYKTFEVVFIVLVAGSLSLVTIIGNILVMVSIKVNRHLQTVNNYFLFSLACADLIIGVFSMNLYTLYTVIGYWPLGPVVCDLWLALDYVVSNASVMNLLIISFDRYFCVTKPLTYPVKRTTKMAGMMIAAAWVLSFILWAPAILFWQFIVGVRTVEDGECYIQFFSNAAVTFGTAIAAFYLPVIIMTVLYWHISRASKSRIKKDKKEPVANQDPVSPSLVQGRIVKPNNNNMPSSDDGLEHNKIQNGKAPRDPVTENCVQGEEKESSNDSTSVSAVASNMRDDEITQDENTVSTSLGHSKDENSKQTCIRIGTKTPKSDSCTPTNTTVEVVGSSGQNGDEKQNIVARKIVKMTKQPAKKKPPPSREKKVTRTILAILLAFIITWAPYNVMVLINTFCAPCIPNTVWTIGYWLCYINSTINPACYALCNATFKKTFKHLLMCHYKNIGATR
UniProt P18089, sequence (whole entry, looked up): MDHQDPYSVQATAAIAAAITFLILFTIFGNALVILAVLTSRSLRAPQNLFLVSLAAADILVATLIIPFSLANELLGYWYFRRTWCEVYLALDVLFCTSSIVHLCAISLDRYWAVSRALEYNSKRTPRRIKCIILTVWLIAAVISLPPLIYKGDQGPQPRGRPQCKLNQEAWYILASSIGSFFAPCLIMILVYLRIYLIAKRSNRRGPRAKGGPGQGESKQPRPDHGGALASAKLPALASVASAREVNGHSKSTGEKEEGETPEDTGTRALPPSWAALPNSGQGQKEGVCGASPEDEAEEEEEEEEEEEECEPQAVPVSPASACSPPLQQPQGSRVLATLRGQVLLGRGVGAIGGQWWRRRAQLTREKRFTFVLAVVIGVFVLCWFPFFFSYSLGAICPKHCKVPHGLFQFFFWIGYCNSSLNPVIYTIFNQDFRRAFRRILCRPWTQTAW
UniProt O75914, sequence (whole entry, looked up): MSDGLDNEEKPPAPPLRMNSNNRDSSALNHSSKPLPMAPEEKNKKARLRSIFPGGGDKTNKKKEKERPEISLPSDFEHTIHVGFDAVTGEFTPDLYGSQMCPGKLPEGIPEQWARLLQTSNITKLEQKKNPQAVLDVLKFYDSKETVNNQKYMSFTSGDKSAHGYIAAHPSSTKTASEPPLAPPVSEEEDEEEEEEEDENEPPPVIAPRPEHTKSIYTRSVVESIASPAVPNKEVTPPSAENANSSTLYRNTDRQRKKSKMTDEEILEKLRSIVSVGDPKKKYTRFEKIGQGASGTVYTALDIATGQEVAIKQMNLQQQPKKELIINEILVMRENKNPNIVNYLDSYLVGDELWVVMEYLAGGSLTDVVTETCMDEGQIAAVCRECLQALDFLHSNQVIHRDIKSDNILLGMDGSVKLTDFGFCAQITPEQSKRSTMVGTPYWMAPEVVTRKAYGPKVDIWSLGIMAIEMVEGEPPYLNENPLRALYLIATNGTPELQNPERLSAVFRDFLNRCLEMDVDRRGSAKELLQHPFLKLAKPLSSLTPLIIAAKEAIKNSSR
UniProt P21728, sequence (whole entry, looked up): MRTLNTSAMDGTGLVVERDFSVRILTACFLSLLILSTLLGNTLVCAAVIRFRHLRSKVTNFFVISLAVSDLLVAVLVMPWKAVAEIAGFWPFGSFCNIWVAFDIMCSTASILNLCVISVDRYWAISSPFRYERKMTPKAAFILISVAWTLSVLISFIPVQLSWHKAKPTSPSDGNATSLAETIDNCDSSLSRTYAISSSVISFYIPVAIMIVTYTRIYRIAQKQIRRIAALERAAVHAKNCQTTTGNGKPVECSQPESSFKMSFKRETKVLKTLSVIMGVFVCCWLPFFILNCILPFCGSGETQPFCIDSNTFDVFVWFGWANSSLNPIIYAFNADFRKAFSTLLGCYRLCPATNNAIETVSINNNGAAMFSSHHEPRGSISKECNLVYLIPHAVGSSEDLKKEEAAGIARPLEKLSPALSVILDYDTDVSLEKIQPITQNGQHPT
UniProt Q5BJF2, sequence (whole entry, looked up): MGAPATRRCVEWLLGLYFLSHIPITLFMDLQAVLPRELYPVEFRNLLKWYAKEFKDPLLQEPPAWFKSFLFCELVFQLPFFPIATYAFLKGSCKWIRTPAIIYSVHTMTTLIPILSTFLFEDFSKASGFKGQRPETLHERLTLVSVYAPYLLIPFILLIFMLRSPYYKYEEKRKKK
UniProt O94921, sequence (whole entry, looked up): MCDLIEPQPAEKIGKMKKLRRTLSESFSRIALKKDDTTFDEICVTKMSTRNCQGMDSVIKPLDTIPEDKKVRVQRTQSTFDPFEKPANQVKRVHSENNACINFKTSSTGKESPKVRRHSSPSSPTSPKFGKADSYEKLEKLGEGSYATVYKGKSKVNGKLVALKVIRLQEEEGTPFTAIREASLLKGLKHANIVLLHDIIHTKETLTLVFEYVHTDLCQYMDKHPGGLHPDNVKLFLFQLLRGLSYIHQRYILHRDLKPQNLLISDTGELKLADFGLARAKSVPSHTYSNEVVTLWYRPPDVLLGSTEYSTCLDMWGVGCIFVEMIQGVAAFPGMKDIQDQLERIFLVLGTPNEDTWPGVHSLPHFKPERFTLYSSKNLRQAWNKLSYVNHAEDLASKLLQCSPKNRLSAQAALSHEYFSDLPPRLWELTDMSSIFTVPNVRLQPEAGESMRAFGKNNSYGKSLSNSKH

Sample 1
Target: Eukaryotic initiation factor 4A-I (EIF4A1, Homo sapiens, UniProt P60842)
UniProt P60842, sequence (whole entry, looked up): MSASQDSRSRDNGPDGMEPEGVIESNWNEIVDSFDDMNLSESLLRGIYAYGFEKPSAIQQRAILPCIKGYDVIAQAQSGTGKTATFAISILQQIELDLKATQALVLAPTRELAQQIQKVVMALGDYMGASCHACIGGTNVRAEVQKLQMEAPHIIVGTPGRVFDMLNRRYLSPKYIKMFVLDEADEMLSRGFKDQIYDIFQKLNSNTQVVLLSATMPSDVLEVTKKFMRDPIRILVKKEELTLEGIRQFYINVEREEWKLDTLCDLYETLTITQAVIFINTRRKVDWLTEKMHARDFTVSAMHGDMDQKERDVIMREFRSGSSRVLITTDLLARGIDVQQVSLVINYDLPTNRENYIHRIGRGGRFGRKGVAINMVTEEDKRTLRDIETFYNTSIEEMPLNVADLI
Effect on: RNA clamping
Method: fluorescence polarization
Tested at: concentration not given
Setting: mean of two replicates
Added: FAM-labelled poly r(AG)8 RNA
SMILES	fluorescence polarization change
COC(=O)[C@@H]1[C@@H](O)[C@@]2(O)c3c(OC)cc(OS(=O)(=O)c4ccc(C)cc4)cc3O[C@@]2(c2ccc(Br)cc2)[C@H]1c1ccccc1	5 mP
COc1cc(F)cc2c1[C@]1(O)[C@H](O)[C@@H](C#N)[C@H](c3ccccc3)[C@]1(c1ccc(Br)cc1)O2	13.3 mP
COC(=O)[C@@H]1[C@@H](c2ccccc2)[C@]2(c3ccc(OC)cc3)Oc3cc(OC)cc(OC)c3[C@@]23NC(N2CCOCC2)=N[C@@]13O	72.1 mP
COc1cc(OC)c2c(c1)O[C@@]1(c3ccc(Br)cc3)[C@H](c3ccccc3)C3=C(N[C@H]4CCCN4C3=O)[C@@]21O	43.9 mP
COc1ccc([C@@]23Oc4cc(OC)c(F)c(OC)c4[C@]2(O)c2nc4n(c(=O)c2[C@H]3c2ccccc2)CCC4)cc1	42.6 mP
CN[C@@]12C(=O)[C@H](C(=O)OC)[C@@H](c3ccccc3)[C@]1(c1ccc(OC)cc1)Oc1cc(OC)cc(OC)c12	6.9 mP
COc1cc(OC)c2c(c1)O[C@@]1(c3ccc(Br)cc3)[C@H](c3ccccc3)c3c(nc(-c4ccccc4)[nH]c3=O)[C@@]21O	16.1 mP
COc1ccc([C@@]23Oc4cc(O)cc(OC)c4[C@]2(O)[C@H](O)[C@H](C(=O)N(C)OC)[C@H]3c2ccccc2)cc1	7.7 mP
CCOCCOCCN(OC)C(=O)[C@H]1[C@@H](O)[C@@]2(O)c3c(OC)cc(OC)cc3O[C@@]2(c2ccc(OC)cc2)[C@@H]1c1ccccc1	23.2 mP
COc1cc(O)cc2c1[C@]1(O)[C@H](O)[C@H](C(=O)N(C)OC)[C@@H](c3ccccc3)[C@]1(c1ccc(Br)cc1)O2	49.3 mP and 85.7 mP
COc1ccc([C@@]23Oc4cc(OC)cc(OC)c4[C@]2(O)C(=O)[C@H](C(=O)NCCCC2(C)OCCO2)[C@H]3c2ccccc2)cc1	57.1 mP
COc1ccc([C@@]23Oc4cc(OC)cc(OC)c4[C@]2(O)[C@H](O)[C@H](C(=O)c2ccc(C)o2)[C@H]3c2ccccc2)cc1	13.8 mP
COc1ccc([C@@]23Oc4cc(OC)cc(OC)c4[C@]2(O)[C@H](O)[C@H](C(=O)c2oc4ccccc4c2C)[C@H]3c2ccccc2)cc1	2.3 mP
COC(=O)[C@@H]1[C@@H](c2ccccc2)[C@]2(c3ccc(OC)cc3)Oc3cc(OC)cc(OC)c3[C@@]23N2CCCC2=N[C@@]13O	7.3 mP

Sample 2
Target: Bromodomain-containing protein 4, BD1 (BRD4, Homo sapiens, UniProt O60885)
Effect on: acetyl-histone H4 peptide binding
Method: AlphaScreen displacement
Tested at: 50 µM
SMILES	inhibition [%]
Cc1cc(C(C)Nc2ccccc2)c2nc(N3CCOCC3)cc(=O)n2c1 (stereo not shown)	32.1
N#CC(=Cc1ccccn1)c1nc2ccccc2s1	-7.55
Nc1cccc(-c2cc3c(Oc4cccc(O)c4)ncnc3[nH]2)c1	13.9
O=C(CSc1ccc2nnc(-c3cccc(F)c3)n2n1)N1CCCC1	15.3
Nc1cc2ncnc(Nc3cccc(Br)c3)c2cc1N	64.2
C=C(C)Cn1c(SCCC(=O)O)nc2c1c(=O)[nH]c(=O)n2C	-1.35
O=C(CCCN1CC=C(n2c(=O)[nH]c3ccccc32)CC1)c1ccc(F)cc1	30.9
O=C(NCc1cccnc1)c1n[nH]c2ccccc12	-4.55
CCn1c(SCCC(=O)O)nc2c1c(=O)[nH]c(=O)n2C	-3.55
Cc1ccc2c(c1)C(=NNC(=O)c1ccc(Cl)cc1)C(=O)N2	16.2
O=C(Nc1cccnc1)c1n[nH]c2ccccc12	10.1
Clc1ccc(-c2nnc3ccc(SCc4cccnc4)nn23)cc1	9.9
CN1CCN(c2nccn3c(-c4ccoc4)cnc23)CC1	17.4
O=C(O)c1cc(NCc2cc(O)ccc2O)ccc1O	16.1
O=C1NC(=S)SC1=Cc1ccc(-c2ccccc2Cl)o1	26.4
Cn1cnc2c(NCc3ccccc3)nc(NCCO)nc21	16.4
NC(=O)COc1ccc2cc(-c3nc4ccccc4s3)c(=O)oc2c1	6.2

Sample 3
Structure (SMILES): Cc1ccc(NC(=O)c2ccnc(C(F)(F)F)c2)cc1-c1cc(OCCO)nc(N2CCOCC2)c1
Tested at: 1 µM
target	method	item	setting	baseline	remaining binding
TGF-beta receptor type-2 (TGFBR2, Homo sapiens, UniProt P37173)	competitive binding panel	–	–	vehicle	100%
Serine/threonine-protein kinase N1 (PKN1, Homo sapiens, UniProt Q16512)	competitive binding panel	–	–	vehicle	100%
Serine/threonine-protein kinase MRCK gamma (CDC42BPG, Homo sapiens, UniProt Q6DT37)	competitive binding panel	DMPK2	–	vehicle	81%
Serine/threonine-protein kinase PLK3 (PLK3, Homo sapiens, UniProt Q9H4B4)	competitive binding panel	–	–	vehicle	94%
Homeodomain-interacting protein kinase 3 (HIPK3, Homo sapiens, UniProt Q9H422)	competitive binding panel	–	–	vehicle	98%
Serine/threonine-protein kinase PAK 3 (PAK3, Homo sapiens, UniProt O75914)	competitive binding panel	–	–	vehicle	26%
Cyclin-dependent kinase 14 (CDK14, Homo sapiens, UniProt O94921)	competitive binding panel	PFTK1	–	vehicle	100%
Serine/threonine-protein kinase WNK1 (WNK1, Homo sapiens, UniProt Q9H4A3)	competitive binding panel	–	–	vehicle	84%
Mitogen-activated protein kinase kinase kinase 9 (MAP3K9, Homo sapiens, UniProt P80192)	competitive binding panel	MLK1	–	vehicle	100%
Ephrin type-B receptor 6 (EPHB6, Homo sapiens, UniProt O15197)	competitive binding panel	–	–	vehicle	95%
LIM domain kinase 1 (LIMK1, Homo sapiens, UniProt P53667)	competitive binding panel	–	–	vehicle	92%
Tyrosine-protein kinase JAK1 (JAK1, Homo sapiens, UniProt P23458)	competitive binding panel	–	–	vehicle	82%
Phosphatidylinositol 4,5-bisphosphate 3-kinase catalytic subunit alpha isoform (PIK3CA, Homo sapiens, UniProt P42336, Q546K)	competitive binding panel	–	–	vehicle	80%
Aurora kinase C (AURKC, Homo sapiens, UniProt Q9UQB9)	competitive binding panel	–	–	vehicle	83%
Mitogen-activated protein kinase 8 (MAPK8, Homo sapiens, UniProt P45983)	competitive binding	–	JNK1	–	80%

Sample 4
SMILES: C[C@H](c1ccc(F)cc1)N(Cc1ccc(Cl)c(C(=O)O)c1)C(=O)c1cnc2ccccc2c1
Tested at: 10 µM
target	effect on	inhibition
5-hydroxytryptamine receptor 6 (HTR6, Homo sapiens, UniProt P50406)	cell-free assay	11.3%
Alpha-2A adrenergic receptor (ADRA2A, Homo sapiens, UniProt P08913)	cell-free assay	-10.4%
Muscarinic acetylcholine receptor M2 (CHRM2, Homo sapiens, UniProt P08172)	cell-free assay	1.24%
Alpha-2C adrenergic receptor (ADRA2C, Homo sapiens, UniProt P18825)	cell-free assay	14.2%
Alpha-2B adrenergic receptor (ADRA2B, Homo sapiens, UniProt P18089)	cell-free assay	17.7%
Beta-3 adrenergic receptor (ADRB3, Homo sapiens, UniProt P13945)	cell-free assay	-5.1%
5-hydroxytryptamine receptor 1B (HTR1B, Homo sapiens, UniProt P28222)	ligand displacement	-7.94%
5-hydroxytryptamine receptor 7 (HTR7, Homo sapiens, UniProt P34969)	cell-free assay	13.8%
D(1A) dopamine receptor (DRD1, Homo sapiens, UniProt P21728)	cell-free assay	-16%
Alpha-1A adrenergic receptor (ADRA1A, Homo sapiens, UniProt P35348)	cell-free assay	11.5%
Sigma non-opioid intracellular receptor 1 (SIGMAR1, Homo sapiens, UniProt Q99720)	cell-free assay	-17.2%
Sigma intracellular receptor 2 (TMEM97, Homo sapiens, UniProt Q5BJF2)	cell-free assay	-15.4%

Repeated from above (sample 4):
target	effect on	inhibition
5-hydroxytryptamine receptor 1B (HTR1B, Homo sapiens, UniProt P28222)	ligand displacement	-7.94%
5-hydroxytryptamine receptor 7 (HTR7, Homo sapiens, UniProt P34969)	cell-free assay	13.8%
D(1A) dopamine receptor (DRD1, Homo sapiens, UniProt P21728)	cell-free assay	-16%
Alpha-1A adrenergic receptor (ADRA1A, Homo sapiens, UniProt P35348)	cell-free assay	11.5%
